Experimental data from different studies.
A part holds a random share of what one study measured. Positions count from the first letter of the parent shown.
UniProt P93024, sequence (whole entry, looked up): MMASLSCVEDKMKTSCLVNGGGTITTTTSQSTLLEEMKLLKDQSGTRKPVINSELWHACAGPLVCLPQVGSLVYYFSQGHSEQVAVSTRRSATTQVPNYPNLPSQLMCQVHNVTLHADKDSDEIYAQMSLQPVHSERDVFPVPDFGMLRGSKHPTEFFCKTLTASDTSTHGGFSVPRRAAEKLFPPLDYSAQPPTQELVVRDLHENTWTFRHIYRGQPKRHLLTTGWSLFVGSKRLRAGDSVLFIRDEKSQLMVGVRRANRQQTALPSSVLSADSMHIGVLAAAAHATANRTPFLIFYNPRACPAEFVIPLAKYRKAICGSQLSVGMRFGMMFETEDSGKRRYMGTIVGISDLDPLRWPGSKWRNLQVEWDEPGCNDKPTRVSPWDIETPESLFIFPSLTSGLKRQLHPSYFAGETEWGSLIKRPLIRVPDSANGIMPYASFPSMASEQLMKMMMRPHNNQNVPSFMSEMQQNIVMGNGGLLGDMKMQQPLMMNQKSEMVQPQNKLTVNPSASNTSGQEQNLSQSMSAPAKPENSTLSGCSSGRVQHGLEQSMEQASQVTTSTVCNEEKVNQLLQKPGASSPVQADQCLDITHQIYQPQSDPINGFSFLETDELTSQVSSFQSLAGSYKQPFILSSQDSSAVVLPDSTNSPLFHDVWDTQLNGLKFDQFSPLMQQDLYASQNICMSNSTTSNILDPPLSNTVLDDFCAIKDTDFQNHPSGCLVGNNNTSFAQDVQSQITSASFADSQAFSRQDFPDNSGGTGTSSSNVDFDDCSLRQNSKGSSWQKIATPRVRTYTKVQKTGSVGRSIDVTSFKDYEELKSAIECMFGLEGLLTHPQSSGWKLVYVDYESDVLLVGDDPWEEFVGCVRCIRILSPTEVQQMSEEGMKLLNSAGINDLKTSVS
UniProt Q9XED8, sequence (whole entry, looked up): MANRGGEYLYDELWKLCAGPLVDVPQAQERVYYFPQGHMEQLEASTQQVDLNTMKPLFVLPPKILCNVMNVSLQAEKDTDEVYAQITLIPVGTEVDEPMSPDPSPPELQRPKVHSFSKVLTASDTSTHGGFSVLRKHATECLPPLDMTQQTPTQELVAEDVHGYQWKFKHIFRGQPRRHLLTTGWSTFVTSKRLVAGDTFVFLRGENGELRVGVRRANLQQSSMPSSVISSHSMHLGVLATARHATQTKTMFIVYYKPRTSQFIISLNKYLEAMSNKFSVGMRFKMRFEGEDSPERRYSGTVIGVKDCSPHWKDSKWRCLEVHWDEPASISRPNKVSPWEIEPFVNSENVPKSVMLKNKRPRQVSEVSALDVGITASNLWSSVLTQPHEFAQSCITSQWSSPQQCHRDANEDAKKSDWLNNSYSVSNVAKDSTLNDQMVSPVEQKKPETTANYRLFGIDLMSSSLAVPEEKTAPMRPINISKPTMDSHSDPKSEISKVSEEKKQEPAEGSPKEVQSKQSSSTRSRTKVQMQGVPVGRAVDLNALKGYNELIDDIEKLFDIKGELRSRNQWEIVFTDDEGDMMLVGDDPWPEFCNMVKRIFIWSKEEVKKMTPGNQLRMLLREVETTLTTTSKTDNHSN
UniProt Q9FGV1, sequence (whole entry, looked up): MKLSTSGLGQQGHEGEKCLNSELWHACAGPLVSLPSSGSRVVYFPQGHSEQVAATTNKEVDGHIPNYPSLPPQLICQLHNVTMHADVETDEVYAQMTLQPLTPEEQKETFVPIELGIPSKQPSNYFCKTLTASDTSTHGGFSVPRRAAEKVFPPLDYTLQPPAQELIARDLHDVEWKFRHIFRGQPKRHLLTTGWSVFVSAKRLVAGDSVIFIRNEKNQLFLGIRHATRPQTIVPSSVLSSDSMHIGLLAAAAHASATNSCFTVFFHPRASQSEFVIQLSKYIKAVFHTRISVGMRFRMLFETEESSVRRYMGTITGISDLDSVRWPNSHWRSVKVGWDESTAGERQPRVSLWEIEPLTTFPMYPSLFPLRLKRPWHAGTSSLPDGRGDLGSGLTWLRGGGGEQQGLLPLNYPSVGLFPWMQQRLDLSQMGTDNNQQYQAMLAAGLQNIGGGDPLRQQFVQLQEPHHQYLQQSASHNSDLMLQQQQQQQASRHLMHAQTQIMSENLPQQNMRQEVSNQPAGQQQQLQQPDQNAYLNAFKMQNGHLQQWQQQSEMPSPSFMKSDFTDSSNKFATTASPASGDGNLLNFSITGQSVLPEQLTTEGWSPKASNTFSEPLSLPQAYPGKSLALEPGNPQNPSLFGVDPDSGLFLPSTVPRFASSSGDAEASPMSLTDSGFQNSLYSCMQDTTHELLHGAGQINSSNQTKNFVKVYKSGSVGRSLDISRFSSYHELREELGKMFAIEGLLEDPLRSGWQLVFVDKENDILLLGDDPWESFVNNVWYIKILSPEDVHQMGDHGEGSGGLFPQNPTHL
UniProt Q8L7G0, sequence (whole entry, looked up): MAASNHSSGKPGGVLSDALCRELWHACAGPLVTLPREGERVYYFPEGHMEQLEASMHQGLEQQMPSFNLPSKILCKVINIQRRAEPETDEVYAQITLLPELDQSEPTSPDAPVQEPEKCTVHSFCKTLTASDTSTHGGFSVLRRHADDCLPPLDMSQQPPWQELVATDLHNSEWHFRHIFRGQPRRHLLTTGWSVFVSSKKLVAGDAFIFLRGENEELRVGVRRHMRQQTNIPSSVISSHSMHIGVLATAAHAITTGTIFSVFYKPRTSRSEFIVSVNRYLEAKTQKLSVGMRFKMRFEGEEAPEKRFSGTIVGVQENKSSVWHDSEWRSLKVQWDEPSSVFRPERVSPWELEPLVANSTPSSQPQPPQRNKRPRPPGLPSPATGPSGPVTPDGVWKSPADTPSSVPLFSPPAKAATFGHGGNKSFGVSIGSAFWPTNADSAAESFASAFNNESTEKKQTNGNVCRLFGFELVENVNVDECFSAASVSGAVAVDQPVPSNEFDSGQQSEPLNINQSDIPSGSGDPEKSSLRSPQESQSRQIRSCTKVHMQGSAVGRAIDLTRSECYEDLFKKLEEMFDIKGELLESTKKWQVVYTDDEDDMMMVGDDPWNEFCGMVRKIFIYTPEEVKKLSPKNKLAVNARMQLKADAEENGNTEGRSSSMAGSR
UniProt Q8H174, sequence (whole entry, looked up): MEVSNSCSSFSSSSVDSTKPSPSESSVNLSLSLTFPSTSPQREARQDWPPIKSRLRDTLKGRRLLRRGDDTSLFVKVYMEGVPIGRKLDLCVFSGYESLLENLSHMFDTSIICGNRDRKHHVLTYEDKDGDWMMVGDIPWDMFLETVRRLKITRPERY

Set 1 — target: UBE2A UBC core domain (UniProt P49459); technique: yeast two-hybrid; sample: yeast; notes: mostly zero background; reference: not given; reading: higher = stronger interaction
UniProt P49459, sequence (whole entry, looked up): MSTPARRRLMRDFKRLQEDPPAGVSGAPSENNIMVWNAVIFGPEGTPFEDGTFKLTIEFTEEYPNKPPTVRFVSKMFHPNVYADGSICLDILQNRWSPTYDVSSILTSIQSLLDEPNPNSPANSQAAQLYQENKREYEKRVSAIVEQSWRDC
B1: MARCHF1 RING domain (UniProt Q8TCQ1); chain TAPRSQSRLSVCPSTQDICRICHCEGDEESPLITPCRCTGTLRFVHQSCLHQWIKSSDTRCCELCKYDFIMETKLKPLRKWE
B2: ZNRF4 RING domain (UniProt Q8WWF5); chain VRTFTWHNDLCAICLDEYEEGDQLKILPCSHTYHCKCIDPWFSQAPRRSCPVCKQSVAATEDSF
B3: RNF6 RING domain (UniProt Q9Y252); chain NSIDSELGKICSVCISDYVTGNKLRQLPCMHEFHIHCIDRWLSENCTCPICRQPVLGSNIAN
Sequence	lacZ reporter activity
ASEEEFQFLRCQQCQAEAKCPKLLPCLHTLCSGCLEASGMQCPICQAPWPLGADTP (PML RING domain (UniProt P29590))	0
B1 (MARCHF1 RING domain)	0
B2 (ZNRF4 RING domain)	0
B3 (RNF6 RING domain)	0

Set 2 — target: CCND3, cyclin fold, Cln2 fusion (human); technique: yeast growth competition, sequencing; sample: yeast; notes: weak parent motif; reference: not given; reading: higher = stronger binding; starting sequence: viral docking peptide; YKVKRRLVFGADD
Substitution	normalised enrichment score
YKDKRRLVFGADD [V3D]	0.271
YKVKRRLVFYADD [G10Y]	0.136
YDVKRRLVFGADD [K2D]	0.166
YKVKRRLVFWADD [G10W]	0.233
YRVKRRLVFGADD [K2R]	0.0852
YKVKRQLVFGADD [R6Q]	0.0208
YKVKRRLVFGTDD [A11T]	0.421
YKVKRRLLFGADD [V8L]	0.119
YKVKRRLVFMADD [G10M]	-0.0109
YKVKRRLQFGADD [V8Q]	-0.0656
YKVKRGLVFGADD [R6G]	0.0378
YKVKERLVFGADD [R5E]	0.25
YKVYRRLVFGADD [K4Y]	0.656
YAVKRRLVFGADD [K2A]	0.11
YKVTRRLVFGADD [K4T]	0.299
YKVKRRLVIGADD [F9I]	0.508
YKVKRRLVFKADD [G10K]	0.226
YKVKRRLNFGADD [V8N]	-0.104
YKVLRRLVFGADD [K4L]	-0.163
YKVWRRLVFGADD [K4W]	0.0613
YKVKRRSVFGADD [L7S]	0.561

Set 3 — technique: RNA Bind-n-Seq; molecule type: RNA; sample: in vitro; concentration: not given; reference: input RNA pool; reading: higher = stronger binding
Target: RING finger protein unkempt homolog, zinc fingers 1-6, GST-SBP tag (UNK, Homo sapiens, UniProt Q9C0B0, residues 30-357)
Notes: RNA with constant flanks, human and mouse sites, ends assumed
Shared flanks, not repeated: GGGAGUUCUACAGUCCGACGAUC … CAACAGAGGAUUGAGCAUCA
Target sequence (chain): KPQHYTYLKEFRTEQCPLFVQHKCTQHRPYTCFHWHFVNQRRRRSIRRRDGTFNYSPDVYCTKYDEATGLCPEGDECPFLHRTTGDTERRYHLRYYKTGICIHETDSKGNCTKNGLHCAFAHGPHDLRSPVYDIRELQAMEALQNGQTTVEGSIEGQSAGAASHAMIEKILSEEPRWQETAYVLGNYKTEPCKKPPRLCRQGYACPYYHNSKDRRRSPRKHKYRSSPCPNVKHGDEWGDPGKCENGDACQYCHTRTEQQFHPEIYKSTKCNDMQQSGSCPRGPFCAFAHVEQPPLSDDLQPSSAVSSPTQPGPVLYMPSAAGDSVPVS
Sequence	bound/input enrichment
AGGCGCAAAGCAGCAAAUGUCACGUUACUCACCUCCCUGGUGGAAGGAGAAGCUGUUCACUUAGCUAGGGAUUUUGGGUACAUUUGCGAAACGGAGUUUCCCGCCAAAGCCGUCUCUGAG	0.0921 ratio
CCCUGUGCCCGUGGUUCUCUGCGCAUGCCCGGACCCCGGCGGCUCCGGAGUCCGGGAGGCUCUGGCUGCUCCAGUCGCGGGUCCGGGCCCCGCCUCUCCACUCGGCGGUGGCGUCCGUGU	0.236 ratio
GCUUUUAAUGGAGUUAUGUUUGGAGACAGGCCACUGAAAAUAAAUCACUCCAACAAUGCAAUAGUAAAACCUCCUGAGAUGACACCUCAGGCUGCAGCUAAGGAGUUAGAAGAAGUAAUG	1.92 ratio
CAGCGUCUCUGGGUGGGCCGCUGGCUGGCAGGCCGGGCAGGGGGCCUGCAGCAGGACUGUGCUCUGCGAGUGGAUGCUAGCGCCAGCGCCCGAGACGCAGCCCUGGUCUACCAUAAGCUG	0.347 ratio
ACGUGCUUAAUCCUGGUGCAGGGGGCGAGCAUGGCCGCUCCGCGAGUAUUCCCACUUUCCUGUGCGGUGCAGCAGUAUGCCUGGGGGAAGAUGGGUUCCAACAGCGAAGUGGCGCGGCUG	0.283 ratio
UUAAGAAGAAUGCCUCAUAUUAAACAUGUGGACCUAAGACUGAACAUACUCAGAAAGCUUAUGGCAGAUGAGGUGGACUUUGUGCAACAUGUCACUCAGCUUGACCUGCGAGACAAUAAG	0.179 ratio
GCAGAUAUUGAAGUAAUAUGGUCUCAUGCGAUACAAAAAUACUUGGAAAUCCCACUGAAAGAUUUAAAGUAUUAUAGAUGUAUCUUGUUAAUUCCUGAUAUCUAUAAUAAGCAGCAUGUG	0.247 ratio
GAUGGGGGCCUUGUUUUGUUUUGUUUUGGUUUUUGGAGACAGGGUCUCACUGUGUAGUCCUAGCUGGCCUGGAACUCACUAUGUAGAUCAGGCUGGACUGAACUCACAAAGAUCCACCUG	0.23 ratio

Set 4 — Sequence: B4 (IAA18); technique: two-hybrid; reading: higher = firmer interaction
B4: IAA18 (Arabidopsis thaliana, UniProt O24408); chain MEGYSRNGEISPKLLDLMIPQERRNWFHDEKNSVFKTEEKKLELKLGPPGEEDDDESMIRHMKKEPKDKSILSLAGKYFSPSSTKTTSHKRTAPGPVVGWPPVRSFRKNLASGSSSKLGNDSTTSNGVTLKNQKCDAAAKTTEPKRQGGMFVKINMYGVPIGRKVDLSAHNSYEQLSFTVDKLFRGLLAAQRDFPSSIEDEKPITGLLDGNGEYTLTYEDNEGDKMLVGDVPWQMFVSSVKRLRVIKTSEISSALTYGNGKQEKMRR
partner	conditions	scale	positive tests
IAA26 (Arabidopsis thaliana, UniProt Q8LAL2)		reference: out of 4 tests	1
ARF8 699-811 (Arabidopsis thaliana, UniProt Q9FGV1)		reference: out of 3 tests	3
IAA31 (Arabidopsis thaliana, UniProt Q8H174)		reference: out of 4 tests	2
ARF1 538-665 (Arabidopsis thaliana, UniProt Q8L7G0)		reference: out of 4 tests	0
ARF5 788-902 (Arabidopsis thaliana, UniProt P93024)		reference: out of 4 tests	2
ARF9 519-638 (Arabidopsis thaliana, UniProt Q9XED8)	weak activation fusion	reference: out of 2 tests	2

Set 5 — technique: RNA Bind-n-Seq; molecule type: RNA; sample: in vitro; concentration: 1 µM; notes: whole 134-nt RNA, ends assumed; with: 150 mM KCl; reference: input library; reading: higher = stronger binding
Target: Ras GTPase-activating protein-binding protein 1, RRM domain (G3BP1, Homo sapiens, UniProt Q13283)
UniProt Q13283, sequence (whole entry, looked up): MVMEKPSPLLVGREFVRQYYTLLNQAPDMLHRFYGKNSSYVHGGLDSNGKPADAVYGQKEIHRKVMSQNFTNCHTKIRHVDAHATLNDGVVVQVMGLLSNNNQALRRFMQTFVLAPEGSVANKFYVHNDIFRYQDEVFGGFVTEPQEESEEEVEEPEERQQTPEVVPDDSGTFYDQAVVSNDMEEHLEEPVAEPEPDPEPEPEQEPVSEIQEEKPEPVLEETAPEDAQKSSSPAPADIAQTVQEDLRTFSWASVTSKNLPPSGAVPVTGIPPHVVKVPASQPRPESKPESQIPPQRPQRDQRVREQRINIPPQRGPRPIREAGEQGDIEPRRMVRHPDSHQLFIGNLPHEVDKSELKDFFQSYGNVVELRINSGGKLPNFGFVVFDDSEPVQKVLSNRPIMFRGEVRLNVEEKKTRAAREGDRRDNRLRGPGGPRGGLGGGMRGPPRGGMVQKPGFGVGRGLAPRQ
Shared flanks, not repeated: GGGAGUUCUACAGUCCGACGAUC … UGGAAUUCUCGGGUGUCAAGG
Sequence	log2 enrichment
CUCAAGUCCUGUGCUACACAUCGUAUGUACCGAAUCGGGCCGGGCCGGGCCGGGAAAGUAUUAUGUUACGCCGUUCGGAUCUGCACUUCC	-0.755
AAGUCCUGUGCUACACAUCGUAUGUACCGAAUCGGGAAAAAAAGGGUUUGGGUGGGAAAGUAUUAUGUUACGCCGUUCGGAUCUGCACUU	0.769
CUGUGCUACACAUCGUAUGUACCGAAUCGGGGAAAGGGGAAAAAAAGGGGUUUUUUUGGGGAAAGUAUUAUGUUACGCCGUUCGGAUCUG	0.685
CUCAAGUCCUGUGCUACACAUCGUAUGUACCGAAUCGGGAAGGAAGGAAGGGGAAAGUAUUAUGUUACGCCGUUCGGAUCUGCACUUCCA	-0.165
ACCAAAAAGGUGGGCAUCUUUGGGAAGUGGGGCAAGGGGGGGAUAGGGAGGGGGGUAACACUUUGGGAACAGGUGGUCCCAGGUCGUUUC	-0.377
CCUGUGCUACACAUCGUAUGUACCGAAUCGGUUUUUUUGGUUUUUUUGGGGUUUUUUUGGGAAAGUAUUAUGUUACGCCGUUCGGAUCUG	-0.33
ACCAUGCUGGUGGGCAUCUUUGGGAAGUGGGGCAAGGGGGGGAUAGGGAGGGGGGUAACACUUUGGGAACAGGUGGUCCCAGGUCGUUUC	-0.69
CACAGACAACACGCACCCACACAGACACAGAUGGAAGGGGUUGGGAUGGGGACAGGGUGCACAGCAGGGCGGGGUAGGACCCCAGCCCCU	0.00369

Excerpt of the above (set 2):
Substitution	normalised enrichment score
YKVTRRLVFGADD [K4T]	0.299
YKVKRRLVIGADD [F9I]	0.508
YKVKRRLVFKADD [G10K]	0.226
